Measured values collected from several papers.
Each line is one published result; not all experiments were run side by side. “And” joins repeats or separate records; there may be more than shown.
Target: High affinity nerve growth factor receptor (NTRK1, Homo sapiens, UniProt P04629)

| test | setting | inhibition | SMILES |
| --- | --- | --- | --- |
| cell-free assay | 1 µM | -1% | Cc1cccc(O[C@H]2CCC[C@@H](C(C)CNCc3ccncc3)C2)c1 (relative stereo) |
| enzyme activity, inhibitor | 1 µM | 7% | CN1CC[C@@H](COc2cnc(C#N)cc2-c2ccn3nc(NC(=O)C4CC4)cc3c2)C1 |
| enzyme activity, inhibitor | 10 µM | 2% | NC(=O)C[C@H]1CCc2sc3ncnc(O[C@H]4CC[C@H](N5CCOCC5)CC4)c3c21 |
| enzyme activity, inhibitor, FRET | 1 µM | 81.7% | O=C(Nc1ccc(C(=O)Nc2ccc3[nH]ncc3c2)c(Cl)c1)Nc1cc(C(F)(F)F)ccc1F |
| enzyme activity, inhibitor | 0.1 µM | 32% | CN1CCN(Cc2ccc(-c3ccc(CO[C@H]4CCC[C@@H]4NC(=O)c4cc(-c5cnn(C)c5)cnc4N)cc3)cc2)CC1 |
| enzyme activity, inhibitor | 10 µM | 25% | NC(=O)[C@@H](O)C[C@H]1CCc2sc3ncnc(O[C@H]4CC[C@H](N5CCOCC5)CC4)c3c21 |
| enzyme activity, inhibitor, FRET | 1 µM | 62.2% | O=C(Nc1cc(C(F)(F)F)ccc1F)Nc1ccc(C(=O)Nc2ccc3[nH]ncc3c2)cc1C(F)(F)F |
| kinase activity | 0.1 µM, together with: ATP at Km | -13.2% | CCn1cc(C(=O)O)c(=O)c2c(N)c(F)c(NC3CCCCC3)cc21 |
| enzyme activity, inhibitor, FRET | 1 µM | 56.6% | O=C(Nc1ccc(C(=O)Nc2ccc3[nH]ncc3c2)cc1F)Nc1cc(C(F)(F)F)ccc1F |
| kinase activity | 0.1 µM | 8% and 7% | C=CC(=O)Nc1cccc(-c2cnc3[nH]cc(C(=O)NC(C)(C)C)c3n2)c1 |
| enzyme activity, inhibitor, FRET | 1 µM | 2% | C[C@H]1CN(C(=O)c2cn(-c3ccnc(N)n3)c3cc(C#CC4(O)CCCCC4)ccc23)CCN1 |
| enzyme activity, inhibitor | 0.5 µM | 22% | O=C(Nc1ccc(Oc2ncnc3[nH]cc(-c4ccccc4)c23)c(F)c1)c1c2n(n(-c3cc(F)ccc3F)c1=O)CCCC2 |
| enzyme activity, inhibitor, FRET | 1 µM | 80.7% | O=C(Nc1ccc(C(=O)Nc2ccc3[nH]ncc3c2)c(Br)c1)Nc1cc(C(F)(F)F)ccc1F |
| cell-free assay | 1 µM | -4.1% | COc1ccc(S(=O)(=O)N2CCc3ccccc3C2)cc1N1CCN(C(=O)c2ccc(F)cc2C(F)(F)F)CC1 |
| enzyme activity, inhibitor, FRET | 1 µM | 41.2% | COc1cc(NC(=O)Nc2cc(C(F)(F)F)ccc2F)ccc1C(=O)Nc1ccc2[nH]ncc2c1 |
| cell-free assay | 1 µM | -4.1% | C=CC(=O)N1Cc2nc(-c3cc(-c4cc(Cl)cnc4Cl)c(F)cc3F)n(-c3ccncn3)c2C1 |

Repeated from above:
| test | setting | inhibition | SMILES |
| --- | --- | --- | --- |
| cell-free assay | 1 µM | -4.1% | COc1ccc(S(=O)(=O)N2CCc3ccccc3C2)cc1N1CCN(C(=O)c2ccc(F)cc2C(F)(F)F)CC1 |
| kinase activity | 0.1 µM, together with: ATP at Km | -13.2% | CCn1cc(C(=O)O)c(=O)c2c(N)c(F)c(NC3CCCCC3)cc21 |
